Measured values pooled from the literature.
Each line is one published result; not all experiments were run side by side. Values joined by “and” are separate records of one study, mostly repeats; a detail may differ. ± marks the error that the study gave.

Cc1cc(C)c(CNC(=O)c2cc(Cl)c3c(c2C)O[C@@](C)([C@H]2CC[C@H](N(C)C)CC2)O3)c(=O)[nH]1
best overall response CR (relapsed/refractory NHL patients, PTCL; oral, dose not given): 38.5%

COc1cc(Nc2ncc3c(n2)-c2ccc(Cl)cc2C(c2c(F)cccc2OC)=NC3)ccc1C(=O)O
median response score (female NOD/scid mice, ALL-8 T-cell ALL xenograft; 5.2 mg/kg, 5 days weekly, score scale 0 to 10; direction not given): 6

Cc1sc2c(c1C)C(c1ccc(Cl)cc1)=N[C@@H](CC(=O)NCCCCCCCCNC(=O)COc1cccc3c1C(=O)N(C1CCC(=O)NC1=O)C3=O)c1nnc(C)n1-2 (some centres unmarked)
PD-L1+ cells (flow cytometry; mice, 4T1 tumour, tumour; dose not given): 1.28% and 0.92% and 1.16% and 0.98%

N#Cc1ccc2c(c1)[C@H]1CCCN(C(=O)c3ccc4[nH]cnc4c3)[C@H]1C2
total urinary corticosteroids (human, urine; 40 mg, 24 h, day 1 over day -1; relative to: placebo and baseline): 92.6 % change

NC(=O)c1cnc2[nH]ccc2c1N[C@@H]1[C@@H]2CC3C[C@H]1C[C@@](O)(C3)C2
change from baseline (flow cytometry, measured: CD8+ naive T cells; Japanese healthy subjects, peripheral blood; oral, 100 mg twice daily, day 4): -2.6%

COc1ccc2c(c1)CN(Cc1ccc(C(=O)O)cc1)CCS2
forelimb grip strength (exercised mdx mice; 10 mg/kg, 3 weeks): 0.151 ± 0.004 kgf

COc1cc2cc(-c3ccc(CC(=O)Nc4cc(C(C)(C)C(F)(F)F)no4)cn3)cnc2cc1OC
best overall response PD (RECIST v1.1; human RET-altered solid tumours; dose not given, phase I parts A and B): 23%

Nc1cc(C(F)(F)F)c(-c2cc(N3CCOCC3)nc(N3CCOCC3)n2)cn1
best change in target lesions (human; 100 mg/day; relative to: baseline): 5.29% and 11.7% and 0%

O=C(O)CNC(=O)Cc1ccccc1
sarcomere length (ventricular cardiomyocytes, C57BL/6 mouse; dose not given, 0.292 s): 1.7 µm

COc1ccc(F)cc1C(=O)NCc1ccc(-c2nn([C@@H](C)C(F)(F)F)c(N)c2C(N)=O)cc1
response, best overall, PR, PR-L (relapsed/refractory CLL patients; dose not given, monotherapy): 80%

Cc1n[nH]c2ccc(-c3cc(OC[C@@H](N)Cc4ccccc4)cnc3-c3ccoc3)cc12
log2 fold change (kinase binding, competitor, MIB/MS competition, measured: RIO2; Candida albicans cell lysate; 10 µM; relative to: DMSO): -1.23

C[C@H]1O[C@@H](O[C@H]2CC[C@@]3(C)[C@@H](CC[C@]4(C)[C@@H]3C=C[C@]35OC[C@@]6(CCC(C)(C)C[C@H]63)[C@@H](O)C[C@]54C)[C@]2(C)CO)[C@H](O)[C@@H](O[C@@H]2O[C@H](CO)[C@@H](O)[C@H](O)[C@H]2O)[C@H]1O
triglyceride level (chronic-plus-binge ethanol mice, plasma; oral, 10 mg/kg/day for 7 d, 168 h): 0.591 mM and 0.73 mM and 0.848 mM and 0.769 mM and 0.809 mM and 0.946 mM

CN[C@@H]1COc2c(S(=O)(=O)NC(=O)Nc3c4c(cc5c3CCC5)CCC4)cnn2C1
inhibition (measured: IL-1β; human participants, whole blood ex vivo; 900 mg twice daily, multiple doses, 96 h, added: LPS/ATP; relative to: baseline): 99.4%

CC1(C)CCC(c2ccc(Cl)cc2)=C(CN2CCN(c3ccc(C(=O)NS(=O)(=O)c4ccc(N[C@H](CCN5CCOCC5)CSc5ccccc5)c(S(=O)(=O)C(F)(F)F)c4)cc3)CC2)C1
EC50 (cell kill, PI exclusion flow cytometry; neoplastic T lymphocytes, human, thawed lymph node; 24 h): 24 nM

CC(C)NCC(O)c1ccc(O)c(O)c1 (centres unmarked)
sarcomere length (ventricular cardiomyocytes, C57BL/6 mouse; dose not given, 0.74 s): 1.72 µm

COc1nnc2ccc(N3CCC(c4ccc(OCCN5CCN(C)C(=O)[C@H]5C)cc4)CC3)nn12
time above HEXIM1 threshold (human patients; 5 mg once daily, 2-fold above baseline): 0 h

CO[C@H]1CC[C@H](N2C(=O)CNc3ncc(-c4ccc(C(C)(C)O)nc4)nc32)CC1
pAKT change from baseline (flow cytometry; stimulated monocytes, human, blood; 45 mg single dose, 24 h, mean; relative to: baseline): -10.6%

C[C@@H](O)CCOC(=O)C[C@@H](C)O
plasma glucagon (human; oral drink, dose not given, 90 min post dose, median, all participants): 18 pM

O=C1Nc2cc3[nH]nc(-c4ccncc4)c3cc2CN1Cc1ccccc1
partial response, best response (RECIST v1.1; human, relapsed or refractory advanced solid tumours; intravenous, 7.2 mg/kg, pooled schedules): 0%

CNCc1cc(-c2ccccc2F)n(S(=O)(=O)c2cccnc2)c1
inhibition (esophageal lesions; rat reflux esophagitis model; oral, 1 mg/kg): 38.3%

C[C@]12CC[C@H](O)CC1=CC[C@@H]1[C@@H]2CC[C@]2(C)C(n3cnc4ccccc43)=CC[C@@H]12
AR-V7 protein level (Western blot; male NRG mouse, CWR22Rv1 xenograft, tumour; dose not given, day 16): decreased

Cc1cc(C)c(CNC(=O)c2cc(Cl)c3c(c2C)O[C@@](C)([C@H]2CC[C@H](N(C)C)CC2)O3)c(=O)[nH]1
best overall response CR (IWG 2007 criteria; human, relapsed/refractory peripheral T-cell lymphoma; dose not given): 31%

FC(F)(F)Oc1cccc(-c2cnc3ccc(-c4ccncc4)nn23)c1
tumour bioluminescence (mouse, MDA-MB-231-Luc xenograft; 10 mg/kg, start): 8.88e+09 photons/s and 5.01e+09 photons/s and 9.69e+09 photons/s and 5.79e+09 photons/s and 1.78e+10 photons/s and 1.21e+10 photons/s

N#Cc1ccn2c(-c3ccncc3)c(-c3ccc(F)cc3)nc2c1
log2 fold change (kinase binding, competitor, MIB/MS competition, measured: TPK2; Candida albicans cell lysate; 100 nM; relative to: DMSO): 0.172

Cn1cc([C@H]2C[C@H]3CSC(N)=N[C@@]3(c3ccc(F)cc3F)CO2)cn1
Aβ42 level (measured: Aβx-42; Mus musculus wild-type, brain; subcutaneous, 50 mg/kg, 9 h): 0.31 ng/g

CN[C@@H](C)C(=O)N[C@H]1CN(S(=O)(=O)c2cccc(S(=O)(=O)N3CC[C@H]4CC[C@@H](C(=O)NC(c5ccccc5)c5ccccc5)N4C(=O)[C@@H](NC(=O)[C@H](C)NC)C3)c2)CC[C@H]2CC[C@@H](C(=O)NC(c3ccccc3)c3ccccc3)N2C1=O
best response progressive disease (RECIST 1.1; advanced pancreatic cancer patients; dose not given, prior therapy, added: AG): 50%

O=C(OC(C(F)(F)F)C(F)(F)F)N1CCN(Cc2cccc(Oc3ccccc3)c2)CC1
k3 (PET blocking study; rhesus monkey, brain STR; 0.01 mg/kg, compound pretreatment, added: [18F]T-401 tracer): 0.967 min⁻¹

COc1cc(O)c(CC=C(C)C)c(O)c1C(=O)/C=C/c1ccc(O)cc1
blood glucose (glucose tolerance test; male Tac:SW conventional mice, high-fat diet; in diet, 60 mg/kg/day, 10 weeks, baseline): 133 mg/dL

c1ccc(-c2n[nH]cc2-c2ccnc3ccccc23)nc1
log2 fold change (kinase binding, competitor, MIB/MS competition, measured: CDC7; Candida albicans cell lysate; 10 µM; relative to: DMSO): 1.5

CCOc1c([C@H](C)n2nc(C)c3c(N)ncnc32)cc(Cl)c(F)c1[C@@H]1CNC(=O)C1
plasma protein level change (Olink proximity extension proteomics, measured: TNFRSF4; human FL or MZL patients, plasma; dose not given, week 8; relative to: baseline): -61%

N#Cc1ccc2c(c1)[C@H]1CCCN(C(=O)c3ccc4[nH]cnc4c3)[C@H]1C2
change from baseline (measured: FPG; human; 20 mg once daily, day 28, adjusted mean; relative to: placebo): 5.7 mg/dL

N#Cc1ccc2c(-c3ccncc3)c(-c3ccc(F)cc3)nn2c1
log2 fold change (kinase binding, competitor, MIB/MS competition, measured: RIM11; Candida albicans cell lysate; 100 nM; relative to: DMSO): -0.392

CSCCNc1nc(SCCC(F)(F)F)nc2c1ncn2[C@@H]1O[C@H](COP(=O)(O)OP(=O)(O)C(Cl)(Cl)P(=O)(O)O)[C@@H](O)[C@H]1O
patients with IPA above 80% (light transmittance aggregometry; human patients, platelet-rich plasma; dose not given, 15 min, added: ADP 20 µM; relative to: patients): 5%

N#Cc1ccc(N2CCN(Cc3ccc(COc4cccc5c4CN([C@H]4CCC(=O)NC4=O)C5=O)cc3)CC2)c(F)c1
exchange rate constant (deuterium-hydrogen exchange; aqueous phosphate buffer; pH 7.4, 37 °C): -0.0205 h⁻¹

C[C@H]1C[C@H]2CSC(N)=N[C@@]2(c2nc(NC(=O)c3ccc(OC(F)F)cn3)cs2)CO1
percent change from baseline (measured: Aβ1-40; healthy adults, plasma; 3 mg single dose, 48 h post-dose; relative to: placebo): -28%

O=C(O)C1=CC(=C(c2ccc(O)c(C(=O)O)c2)c2ccc(O)c(C(=O)O)c2)C=CC1=O
CD4+ T cells in CD3+ (flow cytometry; C57BL/6J mouse MC-38 tumour, tumour-infiltrating lymphocytes; peritumoral, dose not given, 2 cycles; relative to: vehicle): decreased

OC(CCN1CCCCC1)(c1ccccc1)C1CC2C=CC1C2 (centres unmarked)
EEG Alpha1-power Pz-O2 (resting-state EEG; healthy elderly humans; oral, 4 mg, eyes open, LS mean): 4.3 µV²

CO[C@@H](C(=O)N1Cc2n[nH]c(NC(=O)c3ccc(N4CCN(C)CC4)cc3)c2C1)c1ccccc1
discontinuation due to disease progression (patients with advanced solid tumours; dose not given, without G-CSF): 73%

O=C(O)CNC(=O)C(CS)Cc1ccccc1 (centres unmarked)
Leu-enkephalin concentration (LC-MS/MS, measured: extracellular Leu-enkephalin; mouse striatal brain slices; 10 µM, 20 min, added: 50 mM KCl): 2230 pM and 1370 pM and 3140 pM and 986 pM and 2490 pM and 4730 pM and 3920 pM and 5050 pM

COc1ccc(-c2cncc(N[C@@H](C)c3cccc(NC(=O)c4cncc(C)c4)c3)n2)cc1OC
fold change (measured: rno-miR-33-5p; rat SU5416/hypoxia model, lung; dose not given; relative to: SU5416/hypoxia vehicle): 0.387

CCN1CCN(Cc2ccc(Nc3ncc(F)c(-c4cc(F)c5nc6n(c5c4)[C@H](C)CCC6)n3)nc2)CC1
not evaluable response (human advanced solid tumours; 300 mg, phase Ia monotherapy RECIST 1.1): 0%

C[C@@H](NC(=O)N1C(=O)[C@H](Cc2ccnc(N)c2)[C@H]1C(=O)O)C1CCCCC1
time to maximum prothrombin time (human, plasma; continuous intravenous infusion, 0.6 mg/kg/h, days 1 to 6 of 5-day infusion, median): 84.3 h

C[C@H](Oc1ccc(Br)cc1-c1ccon1)C(=O)O
difference from placebo (first response peak; human, tibialis anterior muscle; 1200 mg, 15 Hz, single ascending dose): 3.33%

CN(CCOc1ccc(CC2SC(=O)NC2=O)cc1)c1ccccn1 (centres unmarked)
gene expression (RNA-seq pathway analysis, measured: inflammatory pathway genes; liver spheroids; concentration not given, 24 h and 10 d): decreased

CCCCCN1C[C@H](O)[C@@H](O)[C@H](O)[C@@H]1CO
decreased sphingolipid species (Hexb-/- mouse, plasma; 300 mg/kg/day, unit not given; relative to: untreated): 21

C=CCn1c(=O)c2cnc(Nc3ccc(N4CCN(C)CC4)cc3)nc2n1-c1ccc2c(n1)[C@@](O)(CC)CC2
tumour volume difference (MIA PaCa-2, BALB/c nude mice, xenograft; oral, 80 mg/kg once daily, day 28; relative to: vehicle): 733 ± 40 mm3

CC(C)[C@H](C(=O)Nc1ccc(C(=O)NO)cc1)c1ccccc1
tumour growth rate (volumetric MRI; human, right meningioma; dose not given, day 170): -32.2 %/year

For quick reference, copied from above:
c1ccc(-c2n[nH]cc2-c2ccnc3ccccc23)nc1
log2 fold change (kinase binding, competitor, MIB/MS competition, measured: CDC7; Candida albicans cell lysate; 10 µM; relative to: DMSO): 1.5

CCOc1c([C@H](C)n2nc(C)c3c(N)ncnc32)cc(Cl)c(F)c1[C@@H]1CNC(=O)C1
plasma protein level change (Olink proximity extension proteomics, measured: TNFRSF4; human FL or MZL patients, plasma; dose not given, week 8; relative to: baseline): -61%

N#Cc1ccc2c(c1)[C@H]1CCCN(C(=O)c3ccc4[nH]cnc4c3)[C@H]1C2
change from baseline (measured: FPG; human; 20 mg once daily, day 28, adjusted mean; relative to: placebo): 5.7 mg/dL

N#Cc1ccc2c(-c3ccncc3)c(-c3ccc(F)cc3)nn2c1
log2 fold change (kinase binding, competitor, MIB/MS competition, measured: RIM11; Candida albicans cell lysate; 100 nM; relative to: DMSO): -0.392

CSCCNc1nc(SCCC(F)(F)F)nc2c1ncn2[C@@H]1O[C@H](COP(=O)(O)OP(=O)(O)C(Cl)(Cl)P(=O)(O)O)[C@@H](O)[C@H]1O
patients with IPA above 80% (light transmittance aggregometry; human patients, platelet-rich plasma; dose not given, 15 min, added: ADP 20 µM; relative to: patients): 5%
